Published values gathered from unrelated publications.
Each line is one published result; not all experiments were run side by side. “And” joins repeats or separate records; there may be more than shown. Numbers after ± are the reported error.
Chain of UniProt Q15208 (whole entry, looked up): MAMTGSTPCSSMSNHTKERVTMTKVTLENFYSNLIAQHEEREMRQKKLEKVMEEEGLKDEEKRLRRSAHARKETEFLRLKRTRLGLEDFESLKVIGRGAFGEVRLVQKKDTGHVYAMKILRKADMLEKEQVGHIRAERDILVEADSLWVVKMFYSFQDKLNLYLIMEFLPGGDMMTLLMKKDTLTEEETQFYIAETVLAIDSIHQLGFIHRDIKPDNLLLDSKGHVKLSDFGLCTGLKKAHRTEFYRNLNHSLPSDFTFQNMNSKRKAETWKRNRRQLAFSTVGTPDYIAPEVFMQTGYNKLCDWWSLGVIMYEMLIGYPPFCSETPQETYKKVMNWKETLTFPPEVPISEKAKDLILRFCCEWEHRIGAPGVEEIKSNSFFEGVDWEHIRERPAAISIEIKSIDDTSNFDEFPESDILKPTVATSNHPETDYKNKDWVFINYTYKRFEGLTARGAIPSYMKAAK

OC(CCN1CCCCC1)(c1ccccc1)C1CC2C=CC1C2 (centres unmarked)
change in EEG Alpha2-power Pz-O2 (resting-state EEG; healthy elderly humans; oral, 4 mg, eyes open, LS mean; reference: baseline): 28.3%

O=C(COc1ccc(Cl)cc1)NC12CC(c3nnc([C@H]4C[C@@H](OC(F)(F)F)C4)o3)(C1)C2
CHAC1 mRNA change (healthy human, PBMC; 100 mg once daily, day 15, 24 h post-dose, median, together with: sodium arsenite ex vivo; reference: baseline): -65.7%

O=C[C@H](O)CO
z-scored log2 fold change (binding, equilibrium dialysis LC-MS; 5 µM, thermostabilized A2AR-BRIL construct; reference: no-protein control, direction not given): -0.0352

C=CCn1c(=O)c2cnc(Nc3ccc(N4CCN(C)CC4)cc3)nc2n1-c1ccc2c(n1)[C@@](O)(CC)CC2
tumour volume difference (Calu-3, NOD/SCID mice, xenograft; oral, 80 mg/kg once daily, day 28; reference: vehicle): 310 ± 17.7 mm3

C=CC(=O)N1CCCN(C(=O)c2cc(Sc3cnc(NC(=O)C4CC4)s3)c(C)cc2OC)C[C@H]1C
cytotoxic capacity (item: CD107a; CD8 T cells, mouse, CT26 tumour; dose not given, monotherapy, together with: anti-CD3/anti-CD28 ex vivo 4 h): increased

COc1ccc(-c2cncc(N[C@@H](C)c3cccc(NC(=O)c4cncc(C)c4)c3)n2)cc1OC
delta delta Ct (item: rno-miR-340-5p; rat SU5416/hypoxia model, lung; dose not given, unit not given; reference: SU5416/hypoxia vehicle): 0.54

C[C@@H](O)CCOC(=O)C[C@@H](C)O
metabolite level (item: C18:1-DC acylcarnitine; human, plasma; 60 min, log2-transformed values): -6.81 ± 0.76 µmol/L

Cn1cc(Nc2nccc(-c3ccc4c(c3)CN(C3COC3)CC[C@H]4NC(=O)c3cn(C(C)(C)C)nn3)n2)cn1
pathway activation z-score (item: Th17 Activation Pathway; splenic B cells, mouse; in vivo, 30 mg/kg, IgD-activated B cells; reference: vehicle, positive = activation): 1.94

O=C(NC[C@H]1CN(c2ccc(N3CCOCC3=O)cc2)C(=O)O1)c1ccc(Cl)s1
prothrombin time AUC(0-48h) (human normal renal function, plasma; 10 mg, mean, unit not given; reference: baseline): 71

NC(=O)c1cnc2[nH]ccc2c1N[C@@H]1[C@@H]2CC3C[C@H]1C[C@@](O)(C3)C2
change from baseline (flow cytometry, item: CD8+ effector memory T cells; Japanese healthy subjects, peripheral blood; oral, 100 mg twice daily, day 4): 0.18%

CC[C@@H]1[C@H](F)C(=O)N[C@@H]1COc1nccc2cc(C(N)=O)c(OC)cc12
inhibition (STK38 (Homo sapiens, UniProt Q15208); ATP-site probe binding, ActivX profiling; THP-1 cell lysate; 0.01 mM, Lys1 site): 1.5%

O=P(O)(O)C(Cl)(Cl)P(=O)(O)O
Iba1-positive area difference (immunostaining; mouse, SAH model, hippocampal fissure; dose not given; reference: day 1 over day 7): -1.52%

NC1(C(=O)N[C@@H](CCO)c2ccc(Cl)cc2)CCN(c2nc[nH]c3nccc2-3)CC1
overall non-response rate (human mCRPC patients; dose not given, together with: enzalutamide): 75%

O=CC[C@H](O)[C@H](O)CO
z-scored log2 fold change (binding, equilibrium dialysis LC-MS; 5 µM, thermostabilized A2AR-BRIL construct; reference: no-protein control, direction not given): -0.283

COc1cc(C(=O)CCO)ccc1O
radical scavenging (ABTS radical; 300 µg/mL): 96.63 ± 0.48%

N#Cc1ccn2c(-c3ccncc3)c(-c3ccc(F)cc3)nc2c1
log2 fold change (kinase binding, competitor, MIB/MS competition, item: IRE1; Candida albicans cell lysate; 100 nM; reference: DMSO): -0.336

CC(C)[C@H](N)C(=O)O
z-scored log2 fold change (binding, equilibrium dialysis LC-MS; 5 µM, thermostabilized A2AR-BRIL construct; reference: no-protein control, direction not given): 0.43

Cc1n[nH]c2ccc(-c3cc(OC[C@@H](N)Cc4ccccc4)cnc3-c3ccoc3)cc12
log2 fold change (kinase binding, competitor, MIB/MS competition, item: CKA1; Candida albicans cell lysate; 1 µM; reference: DMSO): 0.0806

COc1cc2cc(-c3ccc(CC(=O)Nc4cc(C(C)(C)C(F)(F)F)no4)cn3)cnc2cc1OC
objective response rate (human RET-altered advanced solid tumours; 75 mg, phase I other tumours, RECIST 1.1): 10%

CCN1[C@@H](C(=O)NC23CCC(C(=O)O)(CC2)CC3)[C@H](c2cccc(Cl)c2F)[C@]2(C(=O)Nc3cc(Cl)ccc32)C12CCCCC2
objective response rate (human, advanced solid tumours; dose not given, whole population, RECIST): 10%

CO[C@H]1CC[C@H](N2C(=O)CNc3ncc(-c4ccc(C(C)(C)O)nc4)nc32)CC1
pAKT change from baseline (flow cytometry; stimulated monocytes, human, blood; 30 mg single dose, 24 h, median; reference: baseline): -42.7%

CCCCC1(CCCC)CN(c2ccccc2)c2cc(SC)c(OCC(=O)N[C@@H](C(=O)NCC(=O)O)c3ccccc3)cc2S(=O)(=O)C1
plasma C4 (item: 7α-hydroxy-4-cholesten-3-one; human, plasma; 10 mg once daily, day 13): 66.9 ng/mL

N#Cc1ccc2c(c1)[C@H]1CCCN(C(=O)c3ccc4[nH]cnc4c3)[C@H]1C2
total urinary corticosteroid excretion (T2DM patients with overweight or obesity, urine; oral, 40 mg, day 1, 0-24 h, multiple dosing, adjusted geometric mean; reference: baseline day -1, -24-0 h): 194%

COC(=O)CCc1ccc(OCC(O)CNC(C)C)cc1 (centres unmarked)
stroke volume change (pulse pressure wave equation; healthy male humans; dose not given, 5 min, together with: saline; reference: baseline): 0.9%

O=C(O)C/C=C/CC(=O)O
z-scored log2 fold change (binding, equilibrium dialysis LC-MS; 5 µM, thermostabilized A2AR-BRIL construct; reference: no-protein control, direction not given): 0.228

CC(C)C[C@H](NC(=O)C[C@H](O)[C@H](CC(C)C)NC(=O)[C@H](Cc1c[nH]cn1)NC(=O)CNC(=O)[C@@H](NC(=O)[C@H](C)NC(=O)[C@H](Cc1c[nH]c2ccccc12)NC(=O)[C@H](CCC(N)=O)NC(=O)[C@@H](Cc1ccccc1)NC(=O)COCCOCCNC(=O)CCC(C(=O)O)N1CCN(CC(=O)O)CCN(CC(=O)O)CCN(CC(=O)O)CC1)C(C)C)C(N)=O (some centres unmarked) [lutetium-177 labelled]
tissue uptake (female BALB/c nu/nu mice, bone; intravenous, 100 pmol, 2 h, together with: PA 300 µg): 0.08 ± 0.04 %ID/g

c1ccc(-c2n[nH]cc2-c2ccnc3ccccc23)nc1
log2 fold change (kinase binding, competitor, MIB/MS competition, item: KSP1; Candida albicans cell lysate; 10 µM; reference: DMSO): 1.28

CSCCNc1nc(SCCC(F)(F)F)nc2c1ncn2[C@@H]1O[C@H](COP(=O)(O)OP(=O)(O)C(Cl)(Cl)P(=O)(O)O)[C@@H](O)[C@H]1O
patients with IPA above threshold (platelet aggregation, light transmittance aggregometry; human, platelet-rich plasma; dose not given, 30 min, IPA above 80 %, together with: TRAP 5 µM; reference: patients): 7.7%

O=C(OC(C(F)(F)F)C(F)(F)F)N1CCN(Cc2cccc(Oc3ccccc3)c2)CC1
tracer distribution volume (PET; rhesus monkey, hippocampus; intravenous, 0.03 mg/kg, pretreatment blocking, together with: [18F]T-401): 3.71 mL/cm3

C[C@H]1C[C@H]2CSC(N)=N[C@@]2(c2nc(NC(=O)c3ccc(OC(F)F)cn3)cs2)CO1
percent change from baseline (item: Aβx-40; healthy adults, plasma; 12 mg single dose, 4 h post-dose; reference: placebo): -48.4%

O=C(O)[C@H](O)[C@@H](O)[C@H](O)[C@H](O)COP(=O)(O)O
z-scored log2 fold change (binding, equilibrium dialysis LC-MS; 5 µM, thermostabilized A2AR-BRIL construct; reference: no-protein control, direction not given): 0.0795

CC(C)NCC(O)c1ccc(O)c(O)c1 (centres unmarked)
sarcomere length (ventricular cardiomyocytes, C57BL/6 mouse; dose not given, 0.112 s): 1.71 µm

CC(C)[C@H](C(=O)Nc1ccc(C(=O)NO)cc1)c1ccccc1
tumour volume (volumetric MRI; human, right C1 intradural meningioma; dose not given, day 809): 0.0852 cm3

CC(C)(C)C(=O)Oc1ccc(S(=O)(=O)Nc2ccccc2C(=O)NCC(=O)O)cc1
NIRF signal reduction (mouse LPS-induced ALI, isolated lungs ex vivo; intratracheal, 2 µmol/kg, dosed 1 h after LPS; reference: untreated ALI mice): 97%

Cc1cc(C)c(CNC(=O)c2cc(Cl)c3c(c2C)O[C@@](C)([C@H]2CC[C@H](N(C)C)CC2)O3)c(=O)[nH]1
overall response rate (human relapsed/refractory NHL; dose not given, measurable baseline disease): 45%

N[C@H](CO)C(=O)O
z-scored log2 fold change (binding, equilibrium dialysis LC-MS; 5 µM, thermostabilized A2AR-BRIL construct; reference: no-protein control, direction not given): 0.282

C[C@H](Oc1ccc(Br)cc1-c1ccon1)C(=O)O
difference from placebo (muscle velocity recovery cycle; human, tibialis anterior muscle; 600 mg once daily, first response latency at 15 Hz, multiple ascending dose): -0.102%

CCO[C@H]1CCN(Cc2c(OC)cc(C)c3[nH]ccc23)[C@H](c2ccc(C(=O)O)cc2)C1
C3d-positive type III RBCs (PNH patients, blood; oral, 50 mg then 200 mg, week 4, mean percent change; reference: baseline): -83%

N#Cc1ccc2c(c1)[C@H]1CCCN(C(=O)c3ccc4[nH]cnc4c3)[C@H]1C2
insulin AUC change (meal tolerance test; human, Phase II trial; 20 mg once daily, day 28, AUC0-2 h, adjusted mean; reference: baseline): 56 pmol/h/L

CN(C)C(=O)c1cc2cnc(Nc3ccc(N4CCNCC4)cn3)nc2n1C1CCCC1
normalized enrichment score (RNA-seq GSEA, item: HALLMARK_APICAL_JUNCTION; MB002 tumour; concentration not given, in vivo; reference: vehicle, direction not given): -1.05

O=C(O)CNC(=O)Cc1ccccc1
sarcomere length (ventricular cardiomyocytes, C57BL/6 mouse; dose not given, 0.1 s): 1.72 µm

O=C(O)c1cc(Cl)ccc1S(=O)(=O)NCCCCN1C(=O)c2cccc3cccc(c23)C1=O
enteroid survival (mouse small intestinal enteroids; concentration not given, applied post-irradiation): no effect

COc1cc(Nc2ncc3c(n2)-c2ccc(Cl)cc2C(c2c(F)cccc2OC)=NC3)ccc1C(=O)O
median response score (mouse, NB-EBc1 neuroblastoma xenograft; 2.6 mg/kg; direction not given): 2

FC(F)(F)Oc1cccc(-c2ccnc3[nH]c(C(F)(F)F)nc23)c1
plasma cholesterol (GAN diet MASH mice; 300 mg/kg, 31 days; reference: GAN control): no effect

Cc1cc(Nc2ccc(S(F)(F)(F)(F)F)cc2)n2nc(C(C)(F)F)nc2n1
patients with gastrointestinal disorders (Plasmodium falciparum; P. falciparum malaria patients; oral, 250 mg): 36.4%

CC(c1cc2ccccc2s1)N(O)C(N)=O (centres unmarked)
lipid mediator level (item: PGE2; human blood; 3 µM, together with: Escherichia coli stimulation): 706 ± 395 pg/mL blood

O=C(O)CCCC[C@@H]1SC[C@@H]2NC(=O)N[C@@H]21
z-scored log2 fold change (binding, equilibrium dialysis LC-MS; 5 µM, thermostabilized A2AR-BRIL construct; reference: no-protein control, direction not given): -1.38

N#Cc1ccc2c(-c3ccncc3)c(-c3ccc(F)cc3)nn2c1
log2 fold change (kinase binding, competitor, MIB/MS competition, item: CAK1; Candida albicans cell lysate; 100 nM; reference: DMSO): -0.384

C[C@H]1O[C@@H](O[C@H]2CC[C@@]3(C)[C@@H](CC[C@]4(C)[C@@H]3C=C[C@]35OC[C@@]6(CCC(C)(C)C[C@H]63)[C@@H](O)C[C@]54C)[C@]2(C)CO)[C@H](O)[C@@H](O[C@@H]2O[C@H](CO)[C@@H](O)[C@H](O)[C@H]2O)[C@H]1O
protein level (Western blot, item: Mtor; chronic-plus-binge ethanol-fed mice, liver; dose not given, medium dose, unit not given; reference: β-actin): 0.728 and 0.673 and 1.12

CCC(=O)NCC(=O)O
z-scored log2 fold change (binding, equilibrium dialysis LC-MS; 5 µM, thermostabilized A2AR-BRIL construct; reference: no-protein control, direction not given): -0.378

Cc1c(C)n(Cc2cccc(OC(C)(C)C(=O)O)c2)c2ccc(C(=O)N[C@@H](C)c3ccc(C(C)(C)C)cc3)cc12
tissue volume (C57BL/6 mouse, diet-induced obesity, proximal tibia; dose not given): 4.06 ± 0.312 mm3

N#CCc1ccc(O)c(Cc2ccc(O)cc2)c1
radical scavenging (DPPH radical; 300 µg/mL): 17.51 ± 0.13%

COc1ccccc1[C@H](Cn1c(=O)n(C(C)(C)C(=O)O)c(=O)c2c(C)c(-c3ncco3)sc21)OC1CCOCC1
blood VLDL level (human; 200 mg, post-treatment): 13.9 ± 9.97 mg/dL

For quick reference, copied from above:
O=P(O)(O)C(Cl)(Cl)P(=O)(O)O
Iba1-positive area difference (immunostaining; mouse, SAH model, hippocampal fissure; dose not given; reference: day 1 over day 7): -1.52%

NC1(C(=O)N[C@@H](CCO)c2ccc(Cl)cc2)CCN(c2nc[nH]c3nccc2-3)CC1
overall non-response rate (human mCRPC patients; dose not given, together with: enzalutamide): 75%

O=CC[C@H](O)[C@H](O)CO
z-scored log2 fold change (binding, equilibrium dialysis LC-MS; 5 µM, thermostabilized A2AR-BRIL construct; reference: no-protein control, direction not given): -0.283
